Assay results of several laboratories.
A part holds a random share of what one study measured.

Sample 1
Target: Sal-like protein 4, full length isoform B (SALL4, Homo sapiens, UniProt Q9UJQ4-2, residues 1-616)
Method: universal PBM
Form: double-stranded DNA, one strand shown
Matrix: in vitro
Concentration: not given
Setting: 8-mer, flanks averaged, mean of replicates
Direction: higher = stronger binding
Measurement: E-score
ATTTCAAC: 0.235
TTTGAAAA: 0.34
CGCTCTAC: -0.0808
AGGTATCG: 0.00086
CCGCAAAG: -0.145

Sample 2
Target: TATA-box-binding protein 1 (TBP1, Arabidopsis thaliana, UniProt P28147, residues 1-200, full length assumed)
Method: protein-binding microarray
Form: double-stranded DNA, one strand shown
Matrix: in vitro
Concentration: not given
Setting: k-mer, scored over probes, only values ≥0.25
Direction: higher = stronger binding
Measurement: E-score
Target sequence (chain): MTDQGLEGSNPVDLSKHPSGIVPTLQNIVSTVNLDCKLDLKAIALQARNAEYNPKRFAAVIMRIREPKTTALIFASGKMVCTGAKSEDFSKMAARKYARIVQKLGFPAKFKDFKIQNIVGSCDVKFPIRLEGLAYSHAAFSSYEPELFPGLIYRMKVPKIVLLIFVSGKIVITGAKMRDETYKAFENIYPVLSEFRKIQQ
AACATGT: 0.283
AACTATT: 0.279
GACTTTA: 0.343

Sample 3
Target: Centromere-binding protein 1, full length, N-terminal tag (CBF1, Saccharomyces cerevisiae, UniProt P17106, residues 1-351)
UniProt P17106, sequence (whole entry, looked up): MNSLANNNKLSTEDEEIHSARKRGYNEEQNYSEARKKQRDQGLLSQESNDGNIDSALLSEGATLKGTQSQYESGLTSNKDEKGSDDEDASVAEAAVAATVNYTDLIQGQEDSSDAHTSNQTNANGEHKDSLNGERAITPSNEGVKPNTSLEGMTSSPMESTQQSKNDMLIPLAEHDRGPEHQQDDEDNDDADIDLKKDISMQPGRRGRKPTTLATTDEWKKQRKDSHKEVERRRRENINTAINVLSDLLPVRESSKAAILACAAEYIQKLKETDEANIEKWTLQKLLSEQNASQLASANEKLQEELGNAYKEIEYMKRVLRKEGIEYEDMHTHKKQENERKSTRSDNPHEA
Method: protein-binding microarray
Form: double-stranded DNA, one strand shown
Matrix: in vitro
Concentration: 0.8 µM
Setting: whole 60-bp probe, no competitor
Direction: higher = stronger binding
Measurement: fluorescence intensity
GAAAGACCACAACGTGTCACTGCTAAGCTGAATTAGGTCTTGATTCGCTTGACGCTGCTG: 554 a.u.
GAAGTACGCTATCATGTGATGAAATATATTCCCTAGGTCTTGATTCGCTTGACGCTGCTG: 3550 a.u.
GAAATACCTCTGCATCAGACACTGATAACATACTAGGTCTTGATTCGCTTGACGCTGCTG: 506 a.u.

Further values, each from its own experiment
PhoQ, residues 284 288 289 292 302 303 ALSMDL  fold induction (PhoP, residues 12 14 15 18 19 LWHCS (Escherichia coli, UniProt P23836); Sort-seq, item: YFP reporter; E. coli; PhoQ-PhoP variant library, with: 10 µM Mg2+; baseline: high Mg2+ state, higher = stronger signaling): 7.82

For quick reference, copied from above (sample 1):
ATTTCAAC: 0.235
TTTGAAAA: 0.34
